{"data": "Published values from different studies", "note": "Several values in a cell are separate wells, animals, samples, runs or records. Numbers after ± are the reported error."}
{"SMILES": "CC1=C(O)C(=O)C=C2C1=CC=C1[C@@]2(C)CC[C@@]2(C)[C@@H]3C[C@](C)(C(=O)O)CC[C@]3(C)CC[C@]12C", "cell line": "MYBPC3 iPSC cardiomyocytes", "assay": "cytotoxicity", "setting": "24 h", "measurement": "EC50", "result": "25.9 µM"}
{"SMILES": "N#Cc1c[nH]c2ccccc12", "cell line": "uninfected HCT-8", "assay": "cytotoxicity, Hoechst nuclei count", "measurement": "EC50", "result": "795 µM"}
{"SMILES": "N=C(N)NCCC[C@H](NC(=O)[C@H](Cc1c[nH]c2ccccc12)NC(=O)[C@H](CCCNC(=N)N)NC(=O)[C@H](Cc1c[nH]c2ccccc12)NC(=O)[C@H](Cc1c[nH]c2ccccc12)NC(=O)[C@H](Cc1c[nH]c2ccccc12)NC(=O)[C@H](CCCNC(=N)N)NC(=O)[C@H](Cc1c[nH]c2ccccc12)NC(=O)[C@@H](N)CCCNC(=N)N)C(N)=O", "cell line": "HD11 macrophages", "measurement": "LC50", "result": "> 512 µM"}
{"SMILES": "CN(C)c1ccc(C(Nc2nc3c(-c4ccc([N+](=O)[O-])cc4)nn(-c4ccccc4)c3s2)P(=O)(Oc2ccccc2)Oc2ccccc2)cc1 (stereo not shown)", "cell line": "Vero cells", "assay": "SRB", "setting": "1 µM, 10% fetal bovine serum", "measurement": "viability", "result": "97.3%"}
{"SMILES": "CC[C@H](C)[C@H](NC(=O)[C@@H](N)CC(N)=O)C(=O)N1CCC[C@H]1C(=O)N1CCC[C@H]1C(=O)N[C@@H](CC(C)C)C(=O)N[C@H](C(=O)N[C@@H](CCC(N)=O)C(=O)N[C@H](C(=O)N1CCC[C@H]1C(=O)N[C@H](C(=O)N[C@H](C(=O)N[C@H](C(=O)N1CCC[C@H]1C(=O)N1CCC[C@H]1C(=O)N[C@@H](Cc1ccccc1)C(=O)N[C@@H](CC(C)C)C(=O)N[C@@H](CCC(N)=O)C(=O)N1CCC[C@H]1C(=O)N[C@@H](CCC(=O)O)C(=O)O)C(C)C)C(C)C)C(C)C)[C@@H](C)O)[C@@H](C)O", "cell line": "Caco-2 monolayers", "setting": "10 µM, 60 min, 37 °C", "measurement": "transport", "result": "0.71 ± 0.17%"}
{"SMILES": "C[C@@H]1O[C@@H](O[C@H]2C[C@@H](O)[C@]3(CO)[C@H]4[C@H](O)C[C@]5(C)[C@@H](C6=CC(=O)OC6)CC[C@]5(O)[C@@H]4CC[C@]3(O)C2)[C@H](O)[C@H](O)[C@H]1O", "cell line": "Jurkat", "assay": "ATP content", "setting": "25 µM, 6 h", "measurement": "toxicity", "result": "not toxic"}
{"SMILES": "C[C@H](NC(=O)[C@H](Cc1ccc(O)cc1)NC(=O)[C@H](CCCNC(=N)N)NC(=O)[C@H](CCCNC(=N)N)NC(=O)[C@H](CCCNC(=N)N)NC(=O)[C@@H](N)CCCNC(=N)N)C(=O)N[C@@H](CCCNC(=N)N)C(=O)N1CCC[C@H]1C(=O)N[C@@H](Cc1ccc(O)cc1)C(=O)N[C@@H](Cc1ccc(O)cc1)C(=O)N[C@@H](CCCNC(=N)N)C(=O)N[C@@H](CCCNC(=N)N)C(=O)N[C@@H](CCCNC(=N)N)C(=O)O", "cell line": "DF-1", "assay": "LDH release", "setting": "1 µM, 1 h", "measurement": "viability", "result": "93.8 ± 1.81%"}
{"SMILES": "CC(c1ccccc1)(c1ccc(O)cc1)c1ccc(O)cc1", "cell line": "HepG2 spheroids, dissociated", "assay": "annexin V-FITC/PI flow cytometry", "setting": "1 µM, 96 h", "measurement": "viable cells", "result": "41 ± 7.61%"}
{"SMILES": "Cc1cc(O)ccc1Cl", "cell line": "SH-SY5Y", "assay": "cell viability, propidium iodide staining", "setting": "24 h, nominal concentration", "measurement": "IC10", "result": "716 µM"}
{"SMILES": "CC(C)C[C@H](NC(=O)[C@H](CCCNC(=N)N)NC(=O)[C@H](Cc1c[nH]c2ccccc12)NC(=O)[C@H](CCCNC(=N)N)NC(=O)[C@H](Cc1c[nH]c2ccccc12)NC(=O)[C@H](Cc1c[nH]c2ccccc12)NC(=O)[C@H](Cc1c[nH]c2ccccc12)NC(=O)[C@H](CCCNC(=N)N)NC(=O)[C@H](Cc1c[nH]c2ccccc12)NC(=O)[C@H](CCCNC(=N)N)NC(=O)CN)C(N)=O", "cell line": "HD11 macrophages", "measurement": "LC50", "result": "> 512 µM"}
{"SMILES": "COc1cc2c(c(OC)c1OC)-c1ccc(OC)c(=O)cc1[C@@H](NC(C)=O)CC2", "cell line": "CHO-WBL", "setting": "8 µg/mL, 3 h, without S9", "measurement": "binucleated cells with micronuclei", "result": "5.3%"}
{"SMILES": "CNC(=O)Oc1cccc2ccccc12", "cell line": "SH-SY5Y", "assay": "cell viability, propidium iodide staining", "setting": "24 h, freely dissolved concentration", "measurement": "IC10", "result": "0.573 µM"}
{"SMILES": "CC[C@H](C)CCCCC(=O)N[C@@H](CCN)C(=O)N[C@H](C(=O)N[C@@H](CCN)C(=O)N[C@H]1CCNC(=O)[C@H]([C@@H](C)O)NC(=O)[C@H](CCN)NC(=O)[C@H](CCN)NC(=O)[C@H](CC(C)C)NC(=O)[C@@H](Cc2ccccc2)NC(=O)[C@H](CCN)NC1=O)[C@@H](C)O", "cell line": "human erythrocytes", "assay": "hemolysis", "setting": "pH 7.2", "how to read": "reference: water complete hemolysis", "measurement": "HD50", "result": "350 µg/mL"}
{"SMILES": "Nc1nc(CC(O)c2ccc(Cl)cc2)c(Br)c(=O)[nH]1 (stereo not shown)", "cell line": "HEL human embryonic lung fibroblasts", "assay": "cell morphology alteration", "measurement": "minimum cytotoxic concentration", "result": "> 100 µM"}
{"SMILES": "Cc1cc(C(C)(C)c2ccc(O)c(C)c2)ccc1O", "cell line": "HepG2 spheroids, dissociated", "assay": "annexin V-FITC/PI flow cytometry", "setting": "0.01 µM, 96 h", "measurement": "late apoptotic cells", "result": "34.4 ± 11.2%"}
{"SMILES": "CC[C@H](C)[C@H](NC(=O)[C@H](CCCNC(=N)N)NC(=O)[C@H](Cc1c[nH]c2ccccc12)NC(=O)[C@H](CCCNC(=N)N)NC(=O)[C@H](Cc1c[nH]c2ccccc12)NC(=O)[C@H](Cc1c[nH]c2ccccc12)NC(=O)[C@H](Cc1c[nH]c2ccccc12)NC(=O)[C@H](CCCNC(=N)N)NC(=O)[C@H](Cc1c[nH]c2ccccc12)NC(=O)[C@H](CCCNC(=N)N)NC(=O)CN)C(N)=O", "cell line": "HD11 macrophages", "measurement": "LC50", "result": "> 512 µM"}
{"SMILES": "CCCCc1nc(N)[nH]c(=O)c1Br", "cell line": "HEL human embryonic lung fibroblasts", "assay": "cell morphology alteration", "measurement": "minimum cytotoxic concentration", "result": "> 100 µM"}
{"SMILES": "Fc1ccc(Oc2ccnc3cc(Cl)cc(Cl)c23)cc1", "cell line": "HEK293-H PPARγ-UAS-bla cells", "assay": "cell confluency", "setting": "24 h, nominal concentration", "how to read": "reference: baseline IC10 over IC10", "measurement": "toxic ratio", "result": 0.17}
{"SMILES": "Oc1ccc(C2(c3ccc(O)cc3)c3ccccc3-c3ccccc32)cc1", "cell line": "HepG2 spheroids", "assay": "annexin V-FITC/PI flow cytometry", "setting": "10 µM, 96 h", "measurement": "necrotic cells", "result": "57% and 56.6%"}
{"SMILES": "N#C[C@@]1(n2ccc(N)nc2=O)O[C@H](CO)[C@@H](O)[C@H]1O", "cell line": "CHO", "setting": "62 µM, without S9", "measurement": "micronucleated cells", "result": "0.22%"}
{"SMILES": "CN(C)CCCC1(c2ccc(F)cc2)OCc2cc(C#N)ccc21 (stereo not shown)", "cell line": "SH-SY5Y", "setting": "24 h, nominal concentration", "how to read": "reference: baseline IC10 over IC10", "measurement": "toxic ratio", "result": 23.9}
{"SMILES": "CC(C)CC(NC(=O)OCc1ccccc1)C(=O)NC(C(=O)NCC(=O)C=[N+]=[N-])C(C)C (stereo not shown)", "cell line": "293T-ACE2", "setting": "40 (unit not given)", "measurement": "CC50", "result": "> 2.5 µM"}
{"SMILES": "O=S(=O)(O)C(F)(F)C(F)(F)C(F)(F)C(F)(F)F", "cell line": "hTERT-RPTEC parental", "setting": "concentration not given, 96-well plate", "measurement": "LDH release", "result": "25.7 mU/mL and 23.8 mU/mL and 19.4 mU/mL and 28.3 mU/mL"}
{"SMILES": "O=c1ccc2ccccc2o1", "cell line": "HepG2", "assay": "item: mitochondrial reserve capacity", "setting": "concentration not given, 1 h, Seahorse mitochondrial toxicity panel", "measurement": "probability of response", "result": "16.2%"}
{"SMILES": "N=C(N)NCCC[C@H](NC(=O)[C@H](Cc1c[nH]c2ccccc12)NC(=O)[C@H](CCCNC(=N)N)NC(=O)[C@H](Cc1c[nH]c2ccccc12)NC(=O)[C@H](Cc1c[nH]c2ccccc12)NC(=O)[C@H](Cc1c[nH]c2ccccc12)NC(=O)[C@H](CCCNC(=N)N)NC(=O)[C@H](Cc1c[nH]c2ccccc12)NC(=O)[C@@H](N)CCCNC(=N)N)C(=O)N[C@@H](Cc1c[nH]c2ccccc12)C(N)=O", "cell line": "HD11 macrophages", "measurement": "LC50", "result": "477 µM"}
{"SMILES": "N=C(N)NCCC[C@H](NC(=O)[C@H](CCCNC(=N)N)NC(=O)[C@H](CCCNC(=N)N)NC(=O)[C@H](CCC(N)=O)NC(=O)[C@H](CCCNC(=N)N)NC(=O)[C@H](CCCNC(=N)N)NC(=O)[C@H](CCCCN)NC(=O)[C@H](CCCCN)NC(=O)[C@H](CCCNC(=N)N)NC(=O)CNC(=O)[C@@H](N)Cc1ccc(O)cc1)C(=O)O", "cell line": "DF-1", "assay": "LDH release", "setting": "1 µM, 1 h", "measurement": "viability", "result": "97.2 ± 1.22%"}
{"SMILES": "CC(C)(c1ccc(O)cc1)c1ccc(O)cc1", "cell line": "HepG2 spheroids", "assay": "annexin V-FITC/PI flow cytometry", "setting": "0.01 µM, 96 h", "measurement": "necrotic cells", "result": "30.7 ± 11.1%"}
{"SMILES": "CC(C)=CCN1Cc2cc(Cl)cc3[nH]c(=S)n(c23)C[C@@H]1C", "cell line": "293T-ACE2", "setting": "40 (unit not given)", "measurement": "CC50", "result": "1 µM"}
{"SMILES": "O=[N+]([O-])c1ccc(-c2nn(-c3ccccc3)c3sc(NC(c4ccccc4O)P(=O)(Oc4ccccc4)Oc4ccccc4)nc23)cc1 (stereo not shown)", "cell line": "Vero cells", "assay": "SRB", "setting": "0.01 µM, 10% fetal bovine serum", "measurement": "viability", "result": "100%"}
{"SMILES": "CC(C)(Oc1ccc(Cl)cc1)C(=O)O", "cell line": "HEK293-H PPARγ-UAS-bla cells", "assay": "cell viability, IncuCyte imaging", "setting": "24 h, freely dissolved concentration", "measurement": "IC10", "result": "2450 µM"}
{"SMILES": "O=S(=O)(c1ccc(O)cc1)c1ccc(O)cc1", "cell line": "HepG2 spheroids, dissociated", "assay": "annexin V-FITC/PI flow cytometry", "setting": "0.1 µM, 24 h", "measurement": "viable cells", "result": "75.6 ± 5.89%"}
{"SMILES": "COc1cc2c(cc1N1C[C@@H](C)N[C@@H](C)C1)N(C(=O)c1ccc(-c3ccc(-c4noc(C)n4)cc3C)cc1)CC2", "cell line": "293T-ACE2", "setting": "40 (unit not given)", "measurement": "CC50", "result": "19 µM"}
{"SMILES": "O=C(O)C(F)(F)C(F)(F)C(F)(F)C(F)(F)C(F)(F)F", "cell line": "hTERT-RPTEC parental", "assay": "LDH release", "system": "culture medium", "setting": "concentration not given, 24 h, 96-well plate", "measurement": "LDH activity in medium", "result": "29.2 mU/mL"}
{"SMILES": "N=C(N)NCCC[C@H](NC(=O)[C@H](CCCNC(=N)N)NC(=O)[C@H](CCCCN)NC(=O)[C@H](CCCNC(=N)N)NC(=O)[C@H](Cc1ccccc1)NC(=O)[C@H](Cc1ccc(O)cc1)NC(=O)[C@H](CCCNC(=N)N)NC(=O)[C@H](CCCNC(=N)N)NC(=O)[C@H](CCCNC(=N)N)NC(=O)[C@H](CCCNC(=N)N)NC(=O)[C@H](CCCNC(=N)N)NC(=O)[C@H](Cc1ccc(O)cc1)NC(=O)[C@H](CCCNC(=N)N)NC(=O)[C@@H](N)CCCNC(=N)N)C(=O)O", "cell line": "DF-1", "assay": "LDH release", "setting": "1 µM, 1 h", "measurement": "viability", "result": "99 ± 3.04%"}
{"SMILES": "O=C(O)C(F)(F)C(F)(F)C(F)(F)C(F)(F)C(F)(F)C(F)(F)C(F)(F)C(F)(F)C(F)(F)F", "cell line": "hTERT-RPTEC parental", "setting": "concentration not given, 96-well plate", "measurement": "LDH release", "result": "22.7 mU/mL and 23.3 mU/mL and 28.7 mU/mL and 27.7 mU/mL"}
{"SMILES": "CC(C)(Oc1ccc(CCNC(=O)c2ccc(Cl)cc2)cc1)C(=O)O", "cell line": "HEK293-H PPARγ-UAS-bla cells", "assay": "cell confluency", "setting": "24 h, nominal concentration", "how to read": "reference: baseline IC10 over IC10", "measurement": "toxic ratio", "result": 2.6}
{"SMILES": "Nc1ccn(C[C@@H](CO)OCP(=O)(O)O)c(=O)n1.O.O", "cell line": "HEL human embryonic lung fibroblasts", "assay": "cell morphology alteration", "measurement": "minimum cytotoxic concentration", "result": "> 250 µM"}
